Assay results collected from several papers.
Parts stem from different laboratories: compare values within a part only. Positions count from the first letter of the parent shown.

Series 1
Target: Ras GTPase-activating protein-binding protein 1, RRM domain (G3BP1, Homo sapiens, UniProt Q13283)
Sequence of UniProt Q13283 (whole entry, looked up): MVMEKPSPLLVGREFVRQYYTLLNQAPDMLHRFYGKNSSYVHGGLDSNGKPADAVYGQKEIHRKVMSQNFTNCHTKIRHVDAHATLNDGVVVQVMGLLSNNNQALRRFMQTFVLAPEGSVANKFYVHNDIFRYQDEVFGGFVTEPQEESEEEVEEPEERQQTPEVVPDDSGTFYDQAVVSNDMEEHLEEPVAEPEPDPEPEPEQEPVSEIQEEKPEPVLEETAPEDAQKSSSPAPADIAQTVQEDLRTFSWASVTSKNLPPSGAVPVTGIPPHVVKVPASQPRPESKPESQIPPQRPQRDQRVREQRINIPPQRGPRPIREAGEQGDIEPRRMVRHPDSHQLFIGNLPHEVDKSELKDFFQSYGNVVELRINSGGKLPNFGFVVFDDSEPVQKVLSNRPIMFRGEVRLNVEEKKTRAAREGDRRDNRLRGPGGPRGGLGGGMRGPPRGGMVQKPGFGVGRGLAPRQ
Technique: RNA Bind-n-Seq
Molecule type: RNA
Sample: in vitro
Concentration: 1 µM
Setting: whole 134-nt RNA, ends assumed
Added: 150 mM KCl
Reference: input library
Direction: higher = stronger binding
Quantity: log2 enrichment
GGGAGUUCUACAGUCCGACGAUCUAACUUUAGAGGAGGAUCUGAUGGAUAUGGCAGUGGACGUGGAUUUGGGGAUGGCUAUAAUGGGUAUGGAGGAGGACCUGGAGGUCGCAAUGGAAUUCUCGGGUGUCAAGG: -0.42
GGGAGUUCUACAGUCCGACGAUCCACAGACAACACGCACCCCCACAGACACAGAGGGAAGGGGUUGGGAUGGGGACAGGGUGCACAGCAGGGCGGGGUAGGACCCCAGCCCCUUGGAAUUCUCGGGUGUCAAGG: 0.075
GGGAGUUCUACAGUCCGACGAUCAAGUCCUGUGCUACACAUCGUAUGUACCGAAUCGGUUUUUGGAAAAAGGAAAAAGGAAAGUAUUAUGUUACGCCGUUCGGAUCUGCACUUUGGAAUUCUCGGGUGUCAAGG: -0.153
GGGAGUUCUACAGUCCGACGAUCUGGGAGGUGGAUUUUGUUUAUUUUUUUAGCUCAUUUCCAGGGGUGGGAAUUUUUCUUUAAUAUGUGUCAUGAAUAAAGUUGUUUUUGAAAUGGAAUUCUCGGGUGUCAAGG: 1.54
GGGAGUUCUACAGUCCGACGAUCCAAGUCCUGUGCUACACAUCGUAUGUACCGAAUCGGCCCGGGGCCCGGCCCGGGGAAAGUAUUAUGUUACGCCGUUCGGAUCUGCACUUCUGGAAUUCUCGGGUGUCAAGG: -0.65
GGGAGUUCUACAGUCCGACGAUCUGUUCCUGUUGAUGAAAAUCUUUUCACUGGAGAGGAUUUGGAUGAACUAGAAGAAGAAUUAAAUACACUUGAUUUAGAAGAAUGACACCAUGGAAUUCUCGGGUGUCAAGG: -0.13
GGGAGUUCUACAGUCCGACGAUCCCUCAAGUCCUGUGCUACACAUCGUAUGUACCGAAUCGGAAAGGUGGUUUGGAAAGUAUUAUGUUACGCCGUUCGGAUCUGCACUUCCAGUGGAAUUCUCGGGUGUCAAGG: -0.31
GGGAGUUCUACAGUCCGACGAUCUGGGAGGUGGAUUUUGUUUAUUUUUUUAGCUCAUUUCCAGGGGCGGGAAUUUUUUUUUAAUAUGUGUCAUGAAUAAAGUUGUUUUUGAAAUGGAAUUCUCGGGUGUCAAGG: 1.11
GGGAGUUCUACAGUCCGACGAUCACCAUGCAGGUGGGCACCUUUGGGAAGUGGGGCAAGGGGGGGAUAGGGAGGGGGGUAACACUUUGGGAACAGGUGGUCCCAGGUCGUUUCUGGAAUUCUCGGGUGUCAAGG: -0.459
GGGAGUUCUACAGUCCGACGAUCCACAGACAACACGCACCCACACAGACACAGAGGGAAGGGGUUGGAAUGGGGACAGGGUGCACAGCAGGGCGGGGUAGGACCCCAGCCCCUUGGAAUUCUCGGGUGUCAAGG: -0.0367
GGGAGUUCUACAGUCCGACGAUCCCUCAAGUCCUGUGCUACACAUCGUAUGUACCGAAUCGGUGGUUUUUGGUGGAAAGUAUUAUGUUACGCCGUUCGGAUCUGCACUUCCAGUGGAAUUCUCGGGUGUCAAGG: -0.235
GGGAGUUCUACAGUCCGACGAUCUAACUUUAGAGGAGGUUCUGAUGGAUAUGGCAGUGGACGUGGAUUUGGGGAUGGCUAUAAUGGGUAUGGAGGAGGACCUGGAGGUGGCAAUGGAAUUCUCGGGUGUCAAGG: -0.73
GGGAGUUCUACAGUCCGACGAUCCCUCAAGUCCUGUGCUACACAUCGUAUGUACCGAAUCGGUUGGGUUGGGUUGGAAAGUAUUAUGUUACGCCGUUCGGAUCUGCACUUCCAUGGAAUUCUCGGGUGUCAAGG: -0.265
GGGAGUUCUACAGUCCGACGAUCAAGUCCUGUGCUACACAUCGUAUGUACCGAAUCGGGUGGGUUUGGGAAAAAAAGGGAAAGUAUUAUGUUACGCCGUUCGGAUCUGCACUUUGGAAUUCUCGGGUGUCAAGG: 0.372

Series 2
Target: CCND2, cyclin fold, Cln2 fusion (human)
Technique: yeast growth competition, sequencing
Sample: yeast
Setting: strong parent motif
Reference: not given
Direction: higher = stronger binding
Quantity: normalised enrichment score
Starting sequence: INSM1 docking peptide (human); PKAIRKLHFEDEV
PKAIRKLHVEDEV [F9V]: -0.097
PKNIRKLHFEDEV [A3N]: 0.0592
PKAIPKLHFEDEV [R5P]: -0.0231
PKAIFKLHFEDEV [R5F]: 0.238
PKAIRKLHREDEV [F9R]: 0.0851
PKPIRKLHFEDEV [A3P]: 0.768
PKAIRFLHFEDEV [K6F]: 0.905
PKAIRKTHFEDEV [L7T]: 0.117
PKAIRKLHFCDEV [E10C]: 1.75

Series 3
Target: Sal-like protein 4, full length isoform A (SALL4, Homo sapiens, UniProt Q9UJQ4, residues 1-1053)
Sequence of UniProt Q9UJQ4 (whole entry, looked up): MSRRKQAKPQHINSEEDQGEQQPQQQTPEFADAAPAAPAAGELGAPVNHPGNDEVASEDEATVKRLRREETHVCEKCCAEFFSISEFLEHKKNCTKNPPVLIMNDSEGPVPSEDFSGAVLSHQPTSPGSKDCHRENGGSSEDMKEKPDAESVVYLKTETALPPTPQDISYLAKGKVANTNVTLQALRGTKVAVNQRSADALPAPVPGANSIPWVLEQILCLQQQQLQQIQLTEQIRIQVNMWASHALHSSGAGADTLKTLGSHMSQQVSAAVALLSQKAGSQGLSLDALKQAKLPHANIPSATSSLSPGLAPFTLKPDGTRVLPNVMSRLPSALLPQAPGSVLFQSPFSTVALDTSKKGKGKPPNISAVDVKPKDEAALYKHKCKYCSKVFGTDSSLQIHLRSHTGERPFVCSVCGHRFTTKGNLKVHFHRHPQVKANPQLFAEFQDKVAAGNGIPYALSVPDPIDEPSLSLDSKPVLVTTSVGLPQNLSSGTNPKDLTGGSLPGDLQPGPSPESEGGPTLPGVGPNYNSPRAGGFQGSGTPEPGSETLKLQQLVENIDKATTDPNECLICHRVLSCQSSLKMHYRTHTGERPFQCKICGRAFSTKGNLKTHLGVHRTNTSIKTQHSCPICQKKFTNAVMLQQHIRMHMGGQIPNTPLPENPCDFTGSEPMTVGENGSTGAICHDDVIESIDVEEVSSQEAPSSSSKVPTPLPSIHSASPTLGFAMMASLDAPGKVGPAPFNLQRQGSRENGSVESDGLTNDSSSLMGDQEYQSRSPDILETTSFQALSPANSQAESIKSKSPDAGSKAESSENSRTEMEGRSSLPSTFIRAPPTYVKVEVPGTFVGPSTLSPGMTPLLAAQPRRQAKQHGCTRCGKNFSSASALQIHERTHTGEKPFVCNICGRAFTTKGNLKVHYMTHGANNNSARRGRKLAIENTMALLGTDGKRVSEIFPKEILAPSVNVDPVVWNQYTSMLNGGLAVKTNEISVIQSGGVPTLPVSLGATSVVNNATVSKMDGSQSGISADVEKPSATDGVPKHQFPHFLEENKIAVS
Technique: universal PBM
Molecule type: double-stranded DNA, one strand shown
Sample: in vitro
Concentration: 600 nM
Setting: 8-mer, flanks averaged, mean of replicates
Direction: higher = stronger binding
Quantity: E-score
CCCGCGTC: -0.319
GCAGCGAA: -0.19
TACATAGA: 0.301
GTTACCAA: 0.0373
GCACGTCC: -0.192
AACGCATC: -0.00655
AAGTCGTG: -0.011
AATTTGAA: 0.333
ATAAACCA: 0.245
CGCGACTA: -0.127
AGGAACCT: 0.0685
AACAAGCA: 0.117
CCAGGCAC: -0.0188
GCATCCCA: -0.09
ACGCCTAA: 0.0131
AGCGCCTC: -0.204
TCCCCAAA: 0.15
GAATGACC: -0.072
AGATTTTA: 0.254
AGGACAGA: -0.0189
ACTAGCTG: -0.0946

Series 4
Target: RING finger protein unkempt homolog, zinc fingers 1-6, SBP tag (UNK, Homo sapiens, UniProt Q9C0B0, residues 30-357)
Sequence of UniProt Q9C0B0 (30-357, looked up): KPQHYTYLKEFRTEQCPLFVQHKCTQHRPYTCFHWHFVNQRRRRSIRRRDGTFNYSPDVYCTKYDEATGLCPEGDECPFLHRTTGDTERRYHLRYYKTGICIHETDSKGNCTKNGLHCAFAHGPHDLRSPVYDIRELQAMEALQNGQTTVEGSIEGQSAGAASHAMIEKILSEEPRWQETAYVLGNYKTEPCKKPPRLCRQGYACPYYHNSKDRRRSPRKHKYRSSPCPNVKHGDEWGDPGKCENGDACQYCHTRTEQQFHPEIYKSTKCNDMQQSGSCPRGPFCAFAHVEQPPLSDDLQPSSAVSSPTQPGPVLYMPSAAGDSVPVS
Technique: RNA Bind-n-Seq
Molecule type: RNA
Sample: in vitro
Concentration: 100 nM
Setting: RNA with constant flanks, vertebrate orthologous sites, ends assumed
Reference: input RNA pool
Direction: higher = stronger binding
Quantity: bound/input enrichment
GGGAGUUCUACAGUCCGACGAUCUAUAUUGUUCAUUUGAUUAAAAUUAUUUAGAUAAGAAAUAUUGCUACGUUCACUUUUAAAUAGCUUUAUCCUGUUUUCCGUUCAUUUUGUAUUUGUUGUGUGUAGUCUCUUAACAUGUCACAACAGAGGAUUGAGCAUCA: 0.516 ratio
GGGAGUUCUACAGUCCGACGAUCAUCUAUCUCCGUAAUAACCUGAGAUUUUCAAAGACAGGUUUUUUUUUUUUUUUUUUACAGUUUAGUACUUGGUUUCUACGAGGAGGACUAAACUCAUGCUUAUAGCUACGUGUGGUCUCCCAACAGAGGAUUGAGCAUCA: 1.45 ratio
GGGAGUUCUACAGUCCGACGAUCCUGAAGCUUUGUGUUUGGCUGCACCUACAUAAGCUGCUACAAAUAGAAUAAAGAAUUUCAUAGCCUGUAUCUAUCAUUUAGAUGCAUGGAAAAUGGGCUUUGCACACAGUGGGUUUGGAGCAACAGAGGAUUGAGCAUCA: 1.87 ratio
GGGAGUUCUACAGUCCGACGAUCAAUUUUUUAAUUUUUUUUAUUUUUUAUUUUCAUUUUUGUUUGGGGAGGGAGAAAAGUUCUUAGCACAAAUGUUUUACAUAAUUUGUACCAAAAAAAAAAAAAAAGGAAACAUAAGAAACGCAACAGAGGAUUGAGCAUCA: 1.61 ratio
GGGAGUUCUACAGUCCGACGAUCCCAGUUUGUAUGUACAUUAUUCACAUUCCUCUCUGUUGUGUUUGGGGGAAAAAAGACAUUUUAGCCUUUUUUAAGGUUAUUGAUUUGAUUUCGUUAUUUGGUUGCAUGAAGUUGCCCUUACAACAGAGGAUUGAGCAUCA: 0.36 ratio
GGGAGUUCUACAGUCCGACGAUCAUCAGGAACAGCAGAGGCUGUUUGAGCUUGGGGAAAUGAGCUUUGCUUUUUAUUUUUGAAUAGGAUACUUUUAUAUGAUGGGUGCUUUGAGUGUGAAUGCAGCAGGCUCUUCAUUUCAGACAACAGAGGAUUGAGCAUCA: 1.17 ratio

Series 5
Target: Centromere-binding protein 1, full length, N-terminal tag (CBF1, Saccharomyces cerevisiae, UniProt P17106, residues 1-351)
Sequence of UniProt P17106 (whole entry, looked up): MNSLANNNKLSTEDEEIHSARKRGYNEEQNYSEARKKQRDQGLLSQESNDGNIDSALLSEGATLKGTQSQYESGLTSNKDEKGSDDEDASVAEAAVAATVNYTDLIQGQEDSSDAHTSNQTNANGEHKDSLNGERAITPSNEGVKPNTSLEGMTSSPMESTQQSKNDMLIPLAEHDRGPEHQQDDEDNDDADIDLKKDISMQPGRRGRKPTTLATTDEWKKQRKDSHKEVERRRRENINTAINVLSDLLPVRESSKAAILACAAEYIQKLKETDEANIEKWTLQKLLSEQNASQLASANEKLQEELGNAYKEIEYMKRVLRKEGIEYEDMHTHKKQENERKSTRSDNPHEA
Technique: protein-binding microarray
Molecule type: double-stranded DNA, one strand shown
Sample: in vitro
Concentration: 0.8 µM
Setting: whole 60-bp probe, no competitor
Direction: higher = stronger binding
Quantity: fluorescence intensity
GAATTCGTAAAACGTGACGACTTTCATAATCTCTAGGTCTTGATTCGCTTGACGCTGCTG: 3540 a.u.
CTATGGTCATCACAACCATCAGCGGTGACAATATTCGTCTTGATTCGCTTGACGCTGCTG: 528 a.u.
CTAAGAAAAAGACGTGACGTTGTAACCGAGAGGTTCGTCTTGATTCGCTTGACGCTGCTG: 876 a.u.
CCTAACTACTATATCCACCTGCCATAGCTTCGTACAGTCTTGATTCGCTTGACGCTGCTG: 523 a.u.
CCTAACTACTATATTCATCTGATATAGCTTCGTACAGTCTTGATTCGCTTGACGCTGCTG: 556 a.u.
GAAAATTTGTAATGTCACGTGCATAATGGCATTTAGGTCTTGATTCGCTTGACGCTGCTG: 14800 a.u.
CTAGAGACCGTACCACACGTTTAGAGCAGCCAGTTCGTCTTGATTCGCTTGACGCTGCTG: 530 a.u.
GAAAACTCGAAGCGTTTCATCAGGTATTTCATATAGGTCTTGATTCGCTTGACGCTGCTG: 509 a.u.
TGTACGAAGCTATACAGCGTGACTATAGTAGTTAGGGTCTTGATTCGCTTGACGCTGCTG: 983 a.u.
GAAATTGTCGCTCTCCACGCCACGCTCGAAGGATAGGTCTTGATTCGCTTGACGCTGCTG: 533 a.u.
GAATCTGCTACATATCGTGAGGTACGAATATCGTAGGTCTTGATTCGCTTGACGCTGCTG: 534 a.u.
CTAACTAAATATTTCAACGTGTGTCTTTCAATTTTCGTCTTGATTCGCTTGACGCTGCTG: 548 a.u.
TGTACGAAGCTATCATACGTGCATATAGTAGTTAGGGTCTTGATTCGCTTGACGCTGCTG: 533 a.u.

Series 6
Target: ABI1, truncated, D143A, DHFR fusion (Arabidopsis thaliana)
Technique: DHFR PCA, deep sequencing
Sample: yeast
Setting: methotrexate growth selection, single substitutions
Added: (+)-ABA 0.0091 µM
Reference: wild-type fitted maximum
Direction: higher = stronger binding
Quantity: relative binding score
Starting sequence: PYL1, truncated, DHFR fusion (Arabidopsis thaliana); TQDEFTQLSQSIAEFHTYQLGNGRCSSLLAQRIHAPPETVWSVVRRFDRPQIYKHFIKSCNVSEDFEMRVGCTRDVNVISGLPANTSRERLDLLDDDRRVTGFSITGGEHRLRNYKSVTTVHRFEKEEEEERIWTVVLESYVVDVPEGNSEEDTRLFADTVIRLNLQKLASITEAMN; partner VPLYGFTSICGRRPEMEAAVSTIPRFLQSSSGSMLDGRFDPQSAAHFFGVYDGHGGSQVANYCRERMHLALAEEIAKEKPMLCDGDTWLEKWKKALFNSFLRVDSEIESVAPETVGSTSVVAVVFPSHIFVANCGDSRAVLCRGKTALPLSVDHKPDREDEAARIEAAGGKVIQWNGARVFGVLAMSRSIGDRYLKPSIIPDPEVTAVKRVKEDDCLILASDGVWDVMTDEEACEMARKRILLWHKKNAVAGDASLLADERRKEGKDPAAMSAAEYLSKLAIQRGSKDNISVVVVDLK
N22F: 11.2%
V118K: 2.27%
L82I: 30.3%
M176A: 2.42%
D153I: -4.47%
V161Q: 35.4%
Q19K: 33.7%
M176R: 6.1%
A13L: 17.6%
A158N: 22%
T106Q: 13.9%
H16D: -0.21%
E174F: -0.871%
N77A: 39.9%

For quick reference, copied from above (series 3):
AAGTCGTG: -0.011
AATTTGAA: 0.333
ATAAACCA: 0.245
CGCGACTA: -0.127
AGGAACCT: 0.0685
AACAAGCA: 0.117
CCAGGCAC: -0.0188
GCATCCCA: -0.09
